Measured values pooled from the literature.
Compare with care: the assays were run in different laboratories. “And” joins repeats or separate records; there may be more than shown. ± marks the error that the study gave.

COC(=O)c1ccccc1Oc1nc(NC(C)C)nc(NC(C)C)n1 — logD (octanol/buffer; pH 7.4): 3.59
COc1cc2nccc(Oc3ccc(NC(=O)c4cc5c(n(-c6ccccc6)c4=O)CCCC5=O)nc3)c2cc1OC — patients with TEAEs (human, relapsed/refractory AML; oral, dose not given, all dose groups combined): 100%
C[Si](C)(C)O[Si](C)(C)O[Si](C)(C)C — enthalpy of phase change (1-octanol/air; concentration not given): -37.5 kJ/mol
CN(CCC#N)C1CCN(C(=O)Cn2cc(NC(=O)c3cnn4cccnc34)c(-c3cc(Cl)ccc3OC(F)F)n2)CC1 — LDL cholesterol change (healthy human; 3 mg once daily, day 42; reference: baseline): -4.8 mg/dL
C[C@]12O[C@H](C[C@]1(O)CO)n1c3ccccc3c3c4c(c5c6ccccc6n2c5c31)CNC4=O — hydrodynamic diameter (dynamic light scattering; bovine serum): 16.9 nm
C[C@@H]1NC(=O)[C@H](CCCCNC(=O)CO/N=C/C(=O)NCCCC[C@@H]2NC(=O)[C@@H](Cc3ccccc3)NC(=O)[C@H](CC(=O)O)NC(=O)CNC(=O)[C@H](CCCNC(=N)N)NC2=O)NC(=O)CNC(=O)[C@@H]2CCCN2C(=O)[C@H](CCCCNC(=O)CO/N=C/C(=O)NCCCC[C@@H]2NC(=O)[C@@H](Cc3ccccc3)NC(=O)[C@H](CC(=O)O)NC(=O)CNC(=O)[C@H](CCCNC(=N)N)NC2=O)NC(=O)[C@H](CCCCNC(=O)[C@H](CCCCN)NC(=O)[C@H](Cc2ccccc2)NC(=O)CNC(=O)CN2CCCNCCNCCCNCC2)NC(=O)[C@H](CCCCNC(=O)CO/N=C/C(=O)NCCCC[C@@H]2NC(=O)[C@@H](Cc3ccccc3)NC(=O)[C@H](CC(=O)O)NC(=O)CNC(=O)[C@H](CCCNC(=N)N)NC2=O)NC(=O)CNC(=O)[C@@H]2CCCN2C(=O)[C@H](CCCCNC(=O)CO/N=C/C(=O)NCCCC[C@@H]2NC(=O)[C@@H](Cc3ccccc3)NC(=O)[C@H](CC(=O)O)NC(=O)CNC(=O)[C@H](CCCNC(=N)N)NC2=O)NC1=O [copper-64 labelled] — intact fraction (RP-HPLC; radiolabelling buffer; 24 h, 37 °C): 100%
COc1ncc(-c2nc3c(n2C(C)C)[C@H](c2ccc(Cl)cc2)N(c2cc(Cl)cn(C)c2=O)C3=O)c(OC)n1 — Cmax (LC-MS/MS; human, plasma; oral, 250 mg, cycle 2 day 1, high-dose arm): 1.53 µg/mL
O=C(O)CN1CCCN2CCN(CC(=O)O)CCCN(CC1)Cc1cccc(n1)C2 — intact complex (64Cu complex; 12 h, pH 7.4, 37 °C, with: DOTA excess): 96%
N#Cc1ccc2c(c1)[C@H]1CCCN(C(=O)c3ccc4[nH]cnc4c3)[C@H]1C2 — maximum ACTH level (human; 20 mg, day 15): 11.4 pmol/L
Cn1cncc1-c1c(F)cncc1NC(=O)c1c(N)nn2cc(F)cnc12 — central volume V1 (two-compartment PK-TGI model; xenograft-bearing mice, plasma; 25 to 50 mg/kg): 0.00983 L/kg
Clc1cc(Cl)cc([C@@H]2COC[C@H](C3CCCC3)N2)c1 — logD (shake-flask, 1-octanol/buffer; pH 7.4): > 4.7
CCc1cc(C(=O)NC)c2nccc(N3CCc4c(cc(Cn5ccnc5)cc4-c4cn(C)nc4C(F)(F)F)C3=O)c2c1 — serum TG change (Sprague Dawley rats; oral, 100 mg/kg twice daily, 7 days; reference: vehicle): -29.8%
CCO[C@H]1CCN(Cc2c(OC)cc(C)c3[nH]ccc23)[C@H](c2ccc(C(=O)O)cc2)C1 — incidence of abdominal discomfort (PNH patients, active haemolysis; oral, 200 mg, 8 weeks, treatment): 0%
CN(C(=O)n1cnc(-c2ccc[n+]([O-])c2)c1)[C@H]1CC[C@H](O)CC1 — tissue concentration (rat, cerebellum; oral, 10 mg/kg single dose, 4 h): 7.2 ± 3.6 ng/g
O=C(Nc1ccc(OC(F)(F)Cl)cc1)c1cnc(N2CC[C@@H](O)C2)c(-c2ccn[nH]2)c1 — grade ≥3 event rate (per treatment cycle, measured: amylase increase; human patients; oral, dose not given, 28 day cycle): 0.1%
O=C(Nc1nc2cccc(-c3ccc(CN4CCS(=O)(=O)CC4)cc3)n2n1)C1CC1 — treatment-emergent adverse events (measured: first degree atrioventricular block; human rheumatoid arthritis patients; oral, 150 mg once daily, 4 weeks, regardless of relatedness): 0%
CC(C)=CCC/C(C)=C/CC/C(C)=C/CC[C@@](C)(O)CCC1=C(C)C(=O)C(C)=C(C)C1=O — AUC0-t ratio (human, plasma; oral, dose not given, with: itraconazole; reference: with over without itraconazole): 344%
CNC(=O)c1ccccc1Nc1cc(Nc2ccc(N3CCOCC3)cc2OC)ncc1C(F)(F)F — solubility (0.1% w/v Soluplus buffer; 4 h, pH 4.5, 37 °C): > 1 mg/mL
Cc1ccc([C@@H]2O[C@H](CO)[C@@H](O)[C@H](O)[C@H]2O)cc1Cc1ccc(-c2ccc(F)cc2)s1 — urinary magnesium excretion change (Japanese type 2 diabetes patients; 100 mg, day 1, 24 h urine collection; reference: baseline): -18.3 mg
Cn1nc2ccccc2c1[C@H]1COC(C)(C)[C@@H](c2ccc(-c3ccccc3)cc2)N1 — logD (shake-flask, 1-octanol/buffer; pH 7.4): > 4.7
[O]=[Co].[O]=[Co][O][Co]=[O] — creatinine-corrected cobalt concentration (rat, female, urine, 24-h collection; oral gavage, single, 300 mg/kg (220 mg Co/kg), day 3, vehicle 0.5% HPMC): 0.0266 µg/µmol creatinine
CCOC(=O)[C@H](CCc1ccccc1)N[C@@H](C)C(=O)N1[C@H](C(=O)O)C[C@H]2CCCC[C@@H]21 — freeze-thaw stability (human plasma; 300 pg/mL, 3 cycles at -20 °C; reference: nominal): 103 ± 14.7%
O=S(=O)(NCCSc1ccccn1)c1ccc(Br)cc1 — logD (octanol/buffer; pH 7.4): 3.03
C[C@H]1CN(C(=O)CC#N)[C@]12CCN(c1ncnc3[nH]ccc13)C2 — subjects with Fatigue (healthy human; oral, 6 mg single): 0%
CCNCCCn1c2c(c3cc(OC)c(OC)cc3c1=O)C(=O)c1cc3c(nc1-2)OCO3 — oral bioavailability (male CD1 mouse; oral, 10 mg/kg; reference: 1 mg/kg intravenous): 14.2%
NC/C(=C\F)COc1cccc(Cn2c(=S)[nH]c(=O)c3[nH]cnc32)c1 — tissue concentration (C57BL/6J mice, lung; oral, 15 mg/kg single, 2 h): 294 ng/mL
Cc1ccc(O)c(-n2nc3ccccc3n2)c1 — daily dermal exposure dose (human aged 3-6 years; concentration not given, sunscreen, 95th percentile): 5140 ng/kg/day
O=Cc1cc2c(cc1F)C(=O)N(C1CCC(=O)NC1=O)C2 (stereo not shown) — plasma concentration (CD-1 mice; intravenous, 1 mg/kg, 1 h): not detected
CCN1CCN(Cc2ccc(Nc3ncc(F)c(-c4cc(F)c5nc6n(c5c4)[C@H](C)CCC6)n3)nc2)CC1 — CL/F (human, plasma; 200 mg multiple dosing, mean): 41.2 L/h
C[C@@H](NC(=O)N1C(=O)[C@H](Cc2ccnc(N)c2)[C@H]1C(=O)O)C1CCCCC1 — CL (UPLC-MS/MS; healthy adult Chinese volunteers, plasma; continuous intravenous infusion, 0.6 mg/kg/h, day 6 of 5-day infusion, mean): 0.333 L/h/kg
C[C@@H](O)CCOC(=O)C[C@@H](C)O — diastolic blood pressure (human; oral drink, dose not given, 240 min post dose, mean): 68 mmHg
C=CC(=O)N(C)CCOc1c(N)ncnc1-c1cc(F)cc(NC(=O)c2ccc(C3CC3)cc2F)c1C — AUC (human, whole blood; oral, 400 mg once daily, day 1): 0.977 µg·h/mL
CCCCCN1C[C@H](O)[C@@H](O)[C@H](O)[C@@H]1CO — brain concentration (LC-MS/MS; Hexb-/- mice, brain; 300 mg/kg/day): 0.271 µg/mL
COc1ccc2c(=O)n(C)c(-c3ccccc3)nc2c1 — tissue/plasma ratio (Sprague-Dawley rat, male, small intestine; oral, 30 mg/kg, 2 h; reference: small intestine over plasma): 2020
Cc1ccc(Sc2ccccc2N2CCNCC2)c(C)c1 — participants with TEAE (measured: Thirst; healthy adult men; oral, 20 mg daily, 12 days): 0%
C=CC(=O)NC1CCN(c2ncc3ncnc(Nc4ccc(Oc5ccc6c(c5)ncn6C)c(C)c4)c3n2)CC1 — participants with skin lesion TEAE (healthy male humans; oral, 240 mg, grade 2): 6.3%
FC(F)(F)c1ccc([C@H]2COC[C@@H](C3CCCCC3)N2)cc1 — logD (shake-flask, 1-octanol/buffer; pH 7.4): > 4.7
Cc1nc2ccc(OCc3ccc(C(F)(F)F)cc3)cc2[nH]1 — tissue concentration (Balb/c mouse, male, liver; intravenous, 1 mg/kg, 3 h): 1620 ± 192 ng/g
CCN1/C(=C/C(C)=O)Sc2ccc(F)cc21 — diastolic blood pressure (cynomolgus monkey; oral, 100 mg/kg, 2 h post-dose): 74 ± 3 mmHg
C=CC(=O)Nc1cc(Nc2nccc(-c3cn(C)c4ccccc34)n2)c(OC)cc1N(C)CCN(C)C — trough concentration (UHPLC-MS/MS; human, plasma; oral, 80 mg once daily): 286 ng/mL and 223 ng/mL and 210 ng/mL and 248 ng/mL and 173 ng/mL and 249 ng/mL and 201 ng/mL
O=C(O)CCC(=O)O.[2H]C([2H])([2H])Oc1cc(C)c2[nH]ccc2c1CN1CC[C@@H](C2CC2)C[C@H]1c1ccc(C(=O)O)cc1 — subjects with TEAE Acne (multiple ascending dose; healthy Chinese subjects; 300 mg once daily): 0%
O=C(COc1ccc(Cl)cc1)NC12CC(c3nnc([C@H]4C[C@@H](OC(F)(F)F)C4)o3)(C1)C2 — participants with procedural pain (human both sexes; oral, 145 mg once daily, 14 days): 57.1%
Cc1ccc([C@H]2N[C@H](c3ccc(C(C)(C)C)cc3)CO[C@@H]2C)cn1 — logD (shake-flask, 1-octanol/buffer; pH 7.4): > 4.7
c1ccc2cc3ccccc3cc2c1 — log K(PDMS-water) (fresh water; 12 (unit not given), 20 °C, S30-2 sampler, 30 µm): 3.91
CCN1CCN(Cc2ccc(Nc3nc4ccc(Oc5ccnc(NC(=O)C6CCN(C)CC6)c5)cc4n3C)cc2C(F)(F)F)CC1 — oral bioavailability (plasma; oral): > 100%
CN1CCC(Nc2ncnc3ccc(-c4cccc(N5CCOCC5)c4)cc23)CC1 — CLint (human liver microsomes): 34 µL/min/mg
CC(C)(C(=O)N1CCOc2c(C#N)cncc2C1)C(F)F — subjects with adverse event (measured: Dizziness; human; oral, 20 mg once daily, 14 days, multiple ascending dose): 0%
Cc1cc(-c2nccc3c2ccn3CC(=O)Nc2ccc(-c3cnccn3)cn2)ccn1 — subjects with any grade 2 TEAE (human; SAD part, single 40 mg dose): 0%
C=CC(=O)NC1CCN(c2ncc3ncnc(Nc4ccc(Oc5ccc6c(c5)ncn6C)c(C)c4)c3n2)CC1 — estimated fraction absorbed (healthy male volunteers; oral, 60 mg): > 85%
COc1ccc2c(c1)CN(C(=O)CCN1CCC(Cc3ccccc3)CC1)CC[S@@+]2[O-] — PQ interval (telemetry; conscious male beagle dogs; intravenous, 4 mg/kg, 4 h): 91 ± 5 ms
O=C1CC[C@H](N2Cc3cc(N4CCN(CC5CCN(c6ccc([C@@H]7c8ccc(O)cc8CC[C@@H]7c7ccccc7)cc6)CC5)CC4)ccc3C2=O)C(=O)N1 — total dose excreted (radiolabelled mass balance; Sprague-Dawley rat, female, urine and feces; oral, 20 mg/kg, up to 168 h): 92.9%
COc1cccc(-c2cccc(Nc3nccc(NC4CCCCC4)n3)c2)c1 — efflux ratio (MDCKII-WT cells; 10 µM, pH 7.4; reference: Papp B-A over A-B): 10.3
O=C(CSc1nnc(-c2ccncc2)o1)Nc1ccc(F)cc1 — logD (octanol/buffer; pH 7.4): 1.9
NCCONC(=O)[C@@H]1CC[C@@H]2CN1C(=O)N2OS(=O)(=O)O — adverse event incidence (measured: leading to temporary interruption; healthy Chinese men; intravenous, 1 g, treatment-related): 0%
CCOc1c([C@H](C)n2nc(C)c3c(N)ncnc32)cc(Cl)c(F)c1[C@@H]1CNC(=O)C1 — half-life (patients with indolent lymphoma, plasma; oral, 20 mg, day 15, monotherapy): 8.8 ± 2 h

Some of these lines once more:
CCCCCN1C[C@H](O)[C@@H](O)[C@H](O)[C@@H]1CO — brain concentration (LC-MS/MS; Hexb-/- mice, brain; 300 mg/kg/day): 0.271 µg/mL
COc1ccc2c(=O)n(C)c(-c3ccccc3)nc2c1 — tissue/plasma ratio (Sprague-Dawley rat, male, small intestine; oral, 30 mg/kg, 2 h; reference: small intestine over plasma): 2020
Cc1ccc(Sc2ccccc2N2CCNCC2)c(C)c1 — participants with TEAE (measured: Thirst; healthy adult men; oral, 20 mg daily, 12 days): 0%
C=CC(=O)NC1CCN(c2ncc3ncnc(Nc4ccc(Oc5ccc6c(c5)ncn6C)c(C)c4)c3n2)CC1 — participants with skin lesion TEAE (healthy male humans; oral, 240 mg, grade 2): 6.3%
FC(F)(F)c1ccc([C@H]2COC[C@@H](C3CCCCC3)N2)cc1 — logD (shake-flask, 1-octanol/buffer; pH 7.4): > 4.7
Cc1nc2ccc(OCc3ccc(C(F)(F)F)cc3)cc2[nH]1 — tissue concentration (Balb/c mouse, male, liver; intravenous, 1 mg/kg, 3 h): 1620 ± 192 ng/g
